Measurements pooled from the literature.
Protocols differ between the studies behind these lines. Several values in a cell are separate wells, animals, samples, runs or records. ± marks the error that the study gave.

O=C1NC2(CC2)COc2ncc(F)cc2[C@H]2COCCN2c2ccn3ncc1c3n2
lymphocyte percentage (Sprague-Dawley rat, male, blood; oral, 10 mg/kg/day, 4 weeks, end of recovery, subacute toxicity): 84.8 ± 2.7%

Cc1ccc(OCCN(C)C)cc1C(=O)N[C@H](C)c1cc(-c2ccnn2C)nc2ccccc12
viability (Vero E6; 125 µM): 4.04% and 3.68%

CC(C)CC(C(=O)N1CC2(CC1C#N)C(=O)Nc1ccccc12)N(C)C(=O)c1cc2c(F)cc(F)c(F)c2[nH]1 (stereo not shown)
inhibition (Human coronavirus 229E; cytopathic effect; MRC5; 0.1542 µM): 99.4%

Cc1cc(Oc2nc(N3CC[C@@H](c4ccncc4)C3)ncc2F)[nH]n1
normalised growth (Mycobacterium tuberculosis; THP-1, H37Rv non-replicating; 0.3001 µM, day 4): 1.89% and 7.55%
